Measurements pooled from the literature.
± marks the error that the study gave.

| SMILES | test | system | conditions | quantity | result |
| --- | --- | --- | --- | --- | --- |
| C[C@H]1N=C(c2ccccc2F)c2cc(Br)ccc2-n2cnc(C(=O)O)c21 |  | Swiss Webster mice, blood | oral, 25 mg/kg, 60 min, PEG400 2.5%, HPMC 98% | concentration | 322 nM |
| O[C@H]1CCCN[C@@H]1CCCn1cnc2c(Cl)c(Cl)ccc21 |  | healthy human volunteers, plasma | oral, 25 mg, day 1, multiple ascending dose | Vz/F | 1040 L |
| C[C@H]1CO[C@@H]2Cn3cc(C(=O)NCc4ccc(F)cc4F)c(=O)c(O)c3C(=O)N12 |  | Indian rhesus macaque, female, Depo-Provera-treated, plasma | intramuscular, 50 mg/kg, 10 weeks after first dose, at first viral RNA detection | plasma concentration | 150 ng/mL |
| c1cc2ccc3cccc4ccc(c1)c2c34 | HPLC-fluorescence | Wistar rat, male, duodenum | oral, 4 mg/kg, 24 h | tissue concentration | 49.2 ± 14.3 ng/g |
| CCCCCCCCCC(=O)N[C@@H](Cc1c[nH]c2ccccc12)C(=O)N[C@H](CC(N)=O)C(=O)N[C@@H](CC(=O)O)C(=O)N[C@@H]1C(=O)NCC(=O)N[C@@H](CCCN)C(=O)N[C@@H](CC(=O)O)C(=O)N[C@H](C)C(=O)N[C@@H](CC(=O)O)C(=O)NCC(=O)N[C@H](CO)C(=O)N[C@@H]([C@H](C)CC(=O)O)C(=O)N[C@@H](CC(=O)c2ccccc2N)C(=O)O[C@@H]1C |  | male Wistar rat, plasma | subcutaneous, 50 mg/kg | total clearance | 1 mL/min/kg |
| O=C(CC(=O)c1ccccc1)c1ccccc1 |  | Sprague-Dawley rat, male, plasma | oral, 50 mg/kg, regular emulsion | Tmax | 2 h |
| Cc1c(P(=S)(c2ccccc2)c2ccccc2)n2ccccc2[n+]1C/C=C/c1ccccc1 |  | mouse, brain | intraperitoneal, 10 mg/kg, 2 h | concentration | 27 ng/g |
| CNC(=O)c1ccc(-c2cnn3ccc(C(=O)N(C)c4ccc(Cl)c(C(=O)OC)c4)cc23)cc1 |  | female C57BL/6 mouse, plasma | oral, 10 mg/kg | AUC | 0.019 µM·h |
| CN[C@@](C)(C[18F])C(=O)O |  | mouse, pancreas | 30 min, tumour-bearing | tracer uptake | 54 %ID/g |
| CCCCCOc1ccc(-c2ccc(-c3ccc(C(=O)N[C@H]4C[C@@H](O)[C@@H](O)NC(=O)[C@@H]5[C@@H](O)[C@@H](C)CN5C(=O)[C@H]([C@@H](C)O)NC(=O)[C@H]([C@H](O)[C@@H](O)c5ccc(O)cc5)NC(=O)[C@@H]5C[C@@H](O)CN5C(=O)[C@H]([C@@H](C)O)NC4=O)cc3)cc2)cc1 | population PK model | patients aged sample B to < sample C years | intravenous, 200 mg loading, 100 mg once daily, mean, weight-corrected | Vss | 0.72 L/kg |
| CCOCN(C(=O)CCl)c1c(C)cccc1CC | LC-MS/MS | herbicide solution | 2 h, 23 °C, with: 365 nm UV exposure | remaining amount | 125 ± 3.28% |
| CC(C)C[C@@H]1NC(=O)[C@@H]2CSSC[C@@H](C(=O)NCC(N)=O)NC(=O)[C@H](Cc3ccccc3)NC(=O)CNC(=O)[C@H](CC(N)=O)NC(=O)[C@@H]3CCCN3C(=O)CNC(=O)[C@@H]3CSSC[C@H](NC(=O)[C@H](CO)NC(=O)[C@H]([C@@H](C)O)NC(=O)[C@@H]4CCCN4C(=O)[C@H](C)NC(=O)[C@H](Cc4c[nH]c5ccccc45)NC(=O)[C@H](CC(=O)O)NC(=O)CNC(=O)[C@H](CCCNC(=N)N)NC(=O)CNC(=O)[C@H](CCC(N)=O)NC(=O)[C@@H]4CCCN4C(=O)[C@@H](NC(=O)CNC(=O)c4ccc(F)cc4)CSSC[C@H](NC(=O)CNC(=O)[C@H](C)NC1=O)C(=O)N[C@@H](C(C)C)C(=O)N3)C(=O)N[C@@H](CO)C(=O)N[C@@H](CCC(N)=O)C(=O)N[C@@H](CC(=O)O)C(=O)N[C@@H](CO)C(=O)N[C@@H](CC(=O)O)C(=O)N2 [fluorine-18 labelled] | biodistribution | nude mouse, U-87 MG xenograft, tumour | intravenous, 740 kBq, 0.5 h | tumour uptake | 1.9 ± 1.15 %ID/g |

For quick reference, copied from above:
| SMILES | test | system | conditions | quantity | result |
| --- | --- | --- | --- | --- | --- |
| CCCCCCCCCC(=O)N[C@@H](Cc1c[nH]c2ccccc12)C(=O)N[C@H](CC(N)=O)C(=O)N[C@@H](CC(=O)O)C(=O)N[C@@H]1C(=O)NCC(=O)N[C@@H](CCCN)C(=O)N[C@@H](CC(=O)O)C(=O)N[C@H](C)C(=O)N[C@@H](CC(=O)O)C(=O)NCC(=O)N[C@H](CO)C(=O)N[C@@H]([C@H](C)CC(=O)O)C(=O)N[C@@H](CC(=O)c2ccccc2N)C(=O)O[C@@H]1C |  | male Wistar rat, plasma | subcutaneous, 50 mg/kg | total clearance | 1 mL/min/kg |
| O=C(CC(=O)c1ccccc1)c1ccccc1 |  | Sprague-Dawley rat, male, plasma | oral, 50 mg/kg, regular emulsion | Tmax | 2 h |
